Literature values that unrelated publications cite.
Compare with care: the assays were run in different laboratories. ± gives the spread as reported.

O=C1c2ccccc2-c2c1c1ccc(Br)cc1c(=O)n2CCCn1ccnc1 — GI50 (NCI-60 panel mean; cell growth): 1260 nM
CC(C)(c1ccc(O)cc1)c1ccc(O)cc1 — LOEC (Pimephales promelas; reproduction): ≥ 640 µg/L
O=C(O)CNC(=O)c1ccccc1[131I] — percent injected dose (normal rat, kidney; 10 min, added: co-injected 99mTc-1): 5.6 ± 0.6 %ID
CC[C@H](C)[C@H](NC(=O)[C@H](CCCCN)NC(=O)[C@H](CCCCN)NC(=O)[C@H](Cc1ccccc1)NC(=O)[C@@H](CC(C)C)NC(=O)[C@H](CCCCN)NC(=O)[C@@H](N)CCCCN)C(=O)N[C@@H](CC(C)C)C(=O)N[C@@H](CCCCN)C(=O)N[C@@H](Cc1ccc(O)cc1)C(=O)N[C@@H](CC(C)C)C(N)=O — hemolysis (horse erythrocytes 5 % v/v; 150 µM): 2 ± 2%
O=C1c2ccccc2-c2c1c1ccc([N+](=O)[O-])cc1c(=O)n2CCCn1ccnc1 — GI50 (lung HOP-62; cell growth): 190 nM
CCN(CC)CCNC(=O)c1c(C)[nH]c(/C=C2\C(=O)Nc3ccc(F)cc32)c1C — log2 fold change (hiPSC-derived cardiomyocytes; contractility; concentration not given, 72 h, at effective concentration; reference: baseline): 1.33
Cc1ccccc1-c1cc(N2CCN(C)CC2)ncc1N(C)C(=O)C(C)(C)c1cc(C(F)(F)F)cc(C(F)(F)F)c1 — half-life (healthy volunteers, plasma; oral, dose not given, netupitant-palonosetron combination, added: oral contraceptives): 75.3 h
COc1cc2nccc(Oc3ccc(NC(=O)C4(C(=O)Nc5ccc(F)cc5)CC4)cc3)c2cc1OC — log2 fold change (hiPSC-derived cardiomyocytes; contractility; concentration not given, 72 h, at effective concentration; reference: baseline): 1.37
C[C@@]12CC[C@H]3c4ccc(O)cc4CC[C@@H]3[C@H]1CC[C@H]2O (single isomer, unassigned) — EC50 (HT-22; cell protection; added: glutamate 10 mM): 936 nM
O=c1c2nc(Br)n([C@@H]3O[C@@H]4COP(=O)(O)O[C@H]4[C@H]3O)c2nc2[nH]c(-c3ccccc3)cn12 — Km or Ki (PDE5; cyclic nucleotide hydrolysis, substrate or inhibitor, isothermal titration calorimetry): 5290 nM
CN[C@H]1C(=O)N[C@@H]2Cc3ccc(cc3)Oc3cc4cc(c3O[C@@H]3O[C@H](C(=O)O)[C@@H](O)[C@H](O)[C@H]3NC(=O)CCCCCCCCC(C)C)Oc3ccc(cc3Cl)[C@@H](O)[C@@H]3NC(=O)[C@H](NC(=O)[C@@H]4NC(=O)[C@@H](NC2=O)c2cc(cc(O)c2Cl)Oc2cc1ccc2O)c1ccc(O)c(c1)-c1c(O[C@H]2O[C@H](CO)[C@@H](O)[C@H](O)[C@@H]2O)cc(O)cc1[C@@H](C(=O)NCCCN(C)C)NC3=O — time above bactericidal concentration (Staphylococcus aureus; plasma; concentration not given, once-weekly dosing): 7 to 14 days
O=C1c2ccccc2-c2c1c1ccc([N+](=O)[O-])cc1c(=O)n2C[C@H](O)CO — GI50 (NCI-60 panel mean; cell growth): 156 ± 61 nM
Nc1nc2c(nc(Br)n2[C@@H]2O[C@@H]3COP(=O)(O)O[C@H]3[C@H]2O)c(=O)[nH]1 — Km or Ki (PDE5; cyclic nucleotide hydrolysis, substrate or inhibitor, isothermal titration calorimetry): 79200 nM
COc1cc2c(Nc3ccc(Br)cc3F)ncnc2cc1OCC1CCN(C)CC1 — lowest effective concentration (hiPSC-derived cardiomyocytes; contractility; 72 h): 5.68 µM
O=C1c2cccc3c2[C@H](CCC3)CN1[C@@H]1CN2CCC1CC2 — Vz/F (healthy volunteers, plasma; oral, dose not given, netupitant-palonosetron alone, ketoconazole study): 923 L
Cc1ccc(Nc2nccc(N(C)c3ccc4c(C)n(C)nc4c3)n2)cc1S(N)(=O)=O — log2 fold change (hiPSC-derived cardiomyocytes; contractility; concentration not given, 72 h, at effective concentration; reference: baseline): 1.19
O=C1c2ccccc2-c2c1c1ccc([N+](=O)[O-])cc1c(=O)n2CCCN1CCOCC1 — GI50 (prostate DU-145; cell growth): 85 nM
CCCS(=O)(=O)Nc1ccc(F)c(C(=O)c2c[nH]c3ncc(-c4ccc(Cl)cc4)cc23)c1F — beating cessation concentration (hiPSC-derived cardiomyocytes; 72 h, tested 0 to 100 µM): 33 µM
CC[C@H](C)CCCCC(=O)N[C@@H](CCN)C(=O)N[C@H](C(=O)N[C@@H](CCN)C(=O)N[C@H]1CCNC(=O)[C@H]([C@@H](C)O)NC(=O)[C@H](CCN)NC(=O)[C@H](CCN)NC(=O)[C@H](CC(C)C)NC(=O)[C@@H](Cc2ccccc2)NC(=O)[C@H](CCN)NC1=O)[C@@H](C)O — intercompartmental clearance (human patients; intravenous, two-compartment population PK model): 9.86 L/h
